Measured values collected from several papers.
Numbered parts are unrelated; each lists some results of a single study. Substitutions count along the parent as printed.

Block 1
Target: Ras GTPase-activating protein-binding protein 1, full length (G3BP1, Homo sapiens, UniProt Q13283)
Chain of UniProt Q13283 (whole entry, looked up): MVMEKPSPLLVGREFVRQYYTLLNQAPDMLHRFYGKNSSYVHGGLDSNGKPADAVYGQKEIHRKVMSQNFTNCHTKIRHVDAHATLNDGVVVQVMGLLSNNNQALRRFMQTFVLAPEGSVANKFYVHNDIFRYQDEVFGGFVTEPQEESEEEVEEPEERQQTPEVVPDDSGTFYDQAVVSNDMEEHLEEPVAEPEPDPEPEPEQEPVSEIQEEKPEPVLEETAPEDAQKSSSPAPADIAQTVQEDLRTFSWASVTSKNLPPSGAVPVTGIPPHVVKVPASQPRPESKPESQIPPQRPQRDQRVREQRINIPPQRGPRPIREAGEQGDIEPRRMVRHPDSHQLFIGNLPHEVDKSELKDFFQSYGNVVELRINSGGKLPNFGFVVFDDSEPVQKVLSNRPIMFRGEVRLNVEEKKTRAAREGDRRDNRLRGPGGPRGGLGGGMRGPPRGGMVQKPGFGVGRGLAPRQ
Technique: RNA Bind-n-Seq
Molecule type: RNA
Sample: in vitro
Concentration: 200 nM
Setting: whole 134-nt RNA, ends assumed
With: 150 mM KCl
Relative to: input library
Reading: higher = stronger binding
| Sequence | log2 enrichment |
| --- | --- |
| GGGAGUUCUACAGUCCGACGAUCUCAAGUCCUGUGCUACACAUCGUAUGUACCGAAUCGGUUUGGAGGUUUUUUUGGAAAGUAUUAUGUUACGCCGUUCGGAUCUGCACUUCCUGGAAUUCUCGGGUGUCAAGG | -0.567 |
| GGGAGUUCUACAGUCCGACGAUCUGGCCCUGGUGGCAUGCGGGGAGGAAGAGGUGGCCUCAUGGAUCGAGGUGGUCCCGGUGGAAUGUUCAGAGGUGGCCGUGGUGGAGACAGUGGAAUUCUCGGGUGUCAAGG | 0.221 |
| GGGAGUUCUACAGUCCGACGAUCUCCUGUGCUACACAUCGUAUGUACCGAAUCGGGGUUUUUGGGGAAAGGGGUUUUUGGGGAAAGUAUUAUGUUACGCCGUUCGGAUCUGCAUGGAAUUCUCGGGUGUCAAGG | 0.8 |
| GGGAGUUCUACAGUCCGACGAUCUGGCCCUGGUGGCAUGCGGGGAGGUAGAGGUGGCCUCAUGGAUCGUGGUGGUCCCGGUGGAAUGUUCAGAGGUGGCCGUGGUGGAGACAGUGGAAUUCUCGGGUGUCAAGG | 0.394 |
| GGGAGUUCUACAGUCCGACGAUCAGUCCUGUGCUACACAUCGUAUGUACCGAAUCGGGAAAAAAAGGGUUUGGGUUUGGGAAAGUAUUAUGUUACGCCGUUCGGAUCUGCACUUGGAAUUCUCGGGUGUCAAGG | -0.229 |
| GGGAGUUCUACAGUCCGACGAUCCAAGUCCUGUGCUACACAUCGUAUGUACCGAAUCGGAAAAAAAGGAGGAAAAAGGAAAGUAUUAUGUUACGCCGUUCGGAUCUGCACUUCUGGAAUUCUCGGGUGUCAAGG | -0.923 |
| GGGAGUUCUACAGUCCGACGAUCAGUCCUGUGCUACACAUCGUAUGUACCGAAUCGGGGUUUUGGGUUUUGGGGUUUUGGGAAAGUAUUAUGUUACGCCGUUCGGAUCUGCACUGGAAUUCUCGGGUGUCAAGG | -0.13 |
| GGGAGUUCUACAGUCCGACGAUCUCAAGUCCUGUGCUACACAUCGUAUGUACCGAAUCGGUUGGGGUUGGGGUUGGGGAAAGUAUUAUGUUACGCCGUUCGGAUCUGCACUUCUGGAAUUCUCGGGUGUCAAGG | 0.498 |
| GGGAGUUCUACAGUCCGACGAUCGUCCUGUGCUACACAUCGUAUGUACCGAAUCGGGGUUUUUGGGGUUUUUGGUUUUUGGGAAAGUAUUAUGUUACGCCGUUCGGAUCUGCAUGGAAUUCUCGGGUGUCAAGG | -0.509 |
| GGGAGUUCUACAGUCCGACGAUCACCAUGCAGGUGGGCAUCUUUGGGAAGUGGGAAAAGGGGGGGAUAGGGAGGGGGGUAACACUUUGGGAACAGGUGGUCCCAGGUCGUUUCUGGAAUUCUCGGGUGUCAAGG | 1.26 |

Block 2
Target: Sal-like protein 4, full length isoform B (SALL4, Homo sapiens, UniProt Q9UJQ4-2, residues 1-616)
Technique: universal PBM
Molecule type: double-stranded DNA, one strand shown
Sample: in vitro
Concentration: not given
Setting: 8-mer, flanks averaged, mean of replicates
Reading: higher = stronger binding
Target sequence (chain): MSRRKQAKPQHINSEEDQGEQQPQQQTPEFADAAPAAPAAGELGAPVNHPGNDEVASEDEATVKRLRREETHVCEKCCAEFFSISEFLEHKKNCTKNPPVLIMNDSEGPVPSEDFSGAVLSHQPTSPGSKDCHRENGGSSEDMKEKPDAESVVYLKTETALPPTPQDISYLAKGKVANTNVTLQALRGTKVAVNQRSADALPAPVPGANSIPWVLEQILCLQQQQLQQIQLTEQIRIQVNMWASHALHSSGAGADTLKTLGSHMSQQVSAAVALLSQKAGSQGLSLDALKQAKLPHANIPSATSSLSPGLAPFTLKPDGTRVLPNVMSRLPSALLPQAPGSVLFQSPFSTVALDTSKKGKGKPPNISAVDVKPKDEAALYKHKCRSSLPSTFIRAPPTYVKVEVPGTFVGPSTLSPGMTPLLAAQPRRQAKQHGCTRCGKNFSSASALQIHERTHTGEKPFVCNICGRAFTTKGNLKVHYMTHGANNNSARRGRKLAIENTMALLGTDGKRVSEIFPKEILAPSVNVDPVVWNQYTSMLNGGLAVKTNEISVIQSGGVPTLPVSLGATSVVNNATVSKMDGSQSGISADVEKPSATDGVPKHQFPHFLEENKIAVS
| Sequence | E-score |
| --- | --- |
| CCTCTTCG | -0.116 |
| TAAACCCA | 0.222 |
| CCATCAGA | -0.0972 |
| CCGCACAG | -0.241 |
| AGGTTGAT | -0.0449 |
| CCCGCTGA | -0.424 |
| GGGAACGA | -0.253 |
| ATTCTTAC | 0.233 |
| CGGTACCG | -0.357 |
| AACACACC | 0.0118 |
| ACAACTGA | 0.126 |
| AGCCTATG | 0.0824 |
| AGTTACTG | -0.0278 |
| GCTGCGAC | -0.0709 |
| AGGTGGGG | -0.175 |
| CCTGGGTA | -0.217 |
| CACGAAAG | 0.0151 |
| ACTAACGA | 0.0719 |

Block 3
Target: CCNE1, cyclin fold, Cln2 fusion (human)
Technique: yeast growth competition, sequencing
Sample: yeast
Setting: weak parent motif
Relative to: not given
Reading: higher = stronger binding
Starting sequence: CDC6 docking peptide (human); TLKGRRLVFDNQL
| Change | normalised enrichment score |
| --- | --- |
| Q12K | -0.0538 |
| R5W | 0.0744 |
| N11A | 0.927 |
| F9E | 0.528 |
| L13G | 0.112 |
| G4S | -0.425 |
| Q12E | 0.277 |
| T1Q | -0.37 |
| N11Y | 1.41 |
| F9D | 0.797 |
| R6C | 0.243 |
| T1M | 0.674 |
| R6N | -0.48 |
| N11P | 0.636 |

Block 4
Target: RING finger protein unkempt homolog, zinc fingers 1-6, GST-SBP tag (UNK, Homo sapiens, UniProt Q9C0B0, residues 30-357)
Chain of UniProt Q9C0B0 (30-357, looked up): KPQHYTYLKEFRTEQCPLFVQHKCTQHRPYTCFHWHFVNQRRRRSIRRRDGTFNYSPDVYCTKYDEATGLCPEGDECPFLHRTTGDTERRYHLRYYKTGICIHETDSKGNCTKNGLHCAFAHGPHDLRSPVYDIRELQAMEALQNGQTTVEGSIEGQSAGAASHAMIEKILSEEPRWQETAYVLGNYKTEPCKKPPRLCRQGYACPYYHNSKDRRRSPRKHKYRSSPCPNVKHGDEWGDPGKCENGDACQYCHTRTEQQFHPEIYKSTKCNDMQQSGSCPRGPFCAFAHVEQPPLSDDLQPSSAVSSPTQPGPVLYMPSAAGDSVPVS
Technique: RNA Bind-n-Seq
Molecule type: RNA
Sample: in vitro
Concentration: not given
Setting: RNA with constant flanks, human and mouse sites, ends assumed
Relative to: input RNA pool
Reading: higher = stronger binding
| Sequence | bound/input enrichment [ratio] |
| --- | --- |
| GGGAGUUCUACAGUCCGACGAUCGUCAUACAUAUUAAUGACCUGACAGUUAACAUUCUGUUGUUUAUUAUUGCCUUUCUCCACCUUAGAGAGCCAUAAAUAACUCUCUGGUGAAGUGAUUUGCUAUAAUGGGGGUGAGGAGUGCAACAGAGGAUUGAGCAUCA | 0.476 |
| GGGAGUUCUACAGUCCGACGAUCUUUGUUUUGUUUGGGGGCCUUUUUUUUUUCCCUAGAAGAUAUGGAGAGCCUUCUUGUCCAACUAGAUUGUUCACCAUCAGCCUGGAACUCUCACUGAACCACCACAGAAAUCGUGGCGAUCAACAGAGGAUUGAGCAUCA | 0.259 |
| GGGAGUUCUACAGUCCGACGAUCAGGGAGCCACGUGCCCCGCCCCACCCGCUCGGGUGAAGCCCAGUGGGAUUUGCAUCUUUCUUUCUCUUUGGUUCCUGCACAUUUAUGGGCUGGGAGGCAUCCGUGUGGAAUUGCGUGCAGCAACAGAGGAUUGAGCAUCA | 0.256 |
| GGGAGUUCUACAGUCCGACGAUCGAUUCAUUGCCUGCUUUACUGGAAUUCUACAAAAUACACUAUUUGGACACUACAACGUUGAUAGAACCAGUUUCCAGAUCCAGGCAGGGUAGUGGAGUGAUUCUCAGGCAGGAGGAGGCGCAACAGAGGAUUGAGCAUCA | 0.42 |
| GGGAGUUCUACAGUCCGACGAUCGGAACACAGCAGAGGGUGUGUAAUAAAAUACAGAUUGGAAAGAAGACUGAUGAAGAAAAAUAACAGCAUGAUUCAGGCACACCAUUGAGUUCUUUGGGAUGCCCGAAAGUGUCUGGUUGGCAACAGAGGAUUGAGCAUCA | 0.231 |
| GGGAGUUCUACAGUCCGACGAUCAGAACUUCAGGAAAUUCACAGAGAGAGUACCAGCUGAUGAAACUGCUUUUGGAUAAUACUCAAAUUAUGAAUGCUCUGCAGAAAUAUCCCAACUGUCCUACAGAUGUGAGGCAGUGGGCACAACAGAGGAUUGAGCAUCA | 0.138 |
| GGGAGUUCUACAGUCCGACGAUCGAGCAUAGCAAGACUCCUGAGGAGAGGAACCUCACUUCCAGCCCGGCAAUGAAUGGGGACCUAGCUAAACUGGCUUGCUCUGAAGCACCUACCGACGUUUCCAAGACCUGGGUCACCUCACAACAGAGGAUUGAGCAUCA | 0.146 |
| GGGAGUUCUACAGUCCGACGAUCUUGUGGGGAUGAGGGUGGGAUGGGAAAGGGAUGUAUGGAUGUUAUUGGCAUUUUUAAGUGUUUAGAGUUUUUUGGGGUUUGGGGUGGUUUUUUUUCCUUGUUUUCCUUUUUUCCUUUUAACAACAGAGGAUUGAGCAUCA | 38.2 |
| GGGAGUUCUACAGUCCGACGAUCCUGUUGGAUGGUUUUCCAAGGACACUUCCACAGGCAGAAGCCCUAGAUAGAGCUUAUCAGAUCGACACAGUGAUUAACCUGAAUGUGCCCUUUGAGGUCAUUAAACAACGCCUUACUGCUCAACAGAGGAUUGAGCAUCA | 0.299 |
| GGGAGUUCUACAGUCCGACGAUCGGUGACGUGGUUCCGGUUGGACAGAGGAGAGCGUGGUGUUGGUGCAUGUGUUUCGGACUGGCCUUCAUGCUUGCUGGCGUCAUCCUCGGAGGGGCGUACCUGUACAAGUAUUUUGCUCUUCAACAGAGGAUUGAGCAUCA | 0.369 |
| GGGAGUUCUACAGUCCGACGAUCUACCAGUGUCUGCUGCAUAGAGCCUUACAUCUCCAGGAGCGGCUGCCCCCGAUUCAGCAGCACAUUUUGAAUAUGCUGGAUCCCCCCACUGAGAUGAAAGCAAAAUGUGAGAGUCCACUCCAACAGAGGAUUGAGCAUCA | 0.175 |

Repeated from above (block 4):
| Sequence | bound/input enrichment [ratio] |
| --- | --- |
| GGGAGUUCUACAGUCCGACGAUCUUUGUUUUGUUUGGGGGCCUUUUUUUUUUCCCUAGAAGAUAUGGAGAGCCUUCUUGUCCAACUAGAUUGUUCACCAUCAGCCUGGAACUCUCACUGAACCACCACAGAAAUCGUGGCGAUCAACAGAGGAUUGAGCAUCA | 0.259 |
| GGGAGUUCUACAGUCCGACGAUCUACCAGUGUCUGCUGCAUAGAGCCUUACAUCUCCAGGAGCGGCUGCCCCCGAUUCAGCAGCACAUUUUGAAUAUGCUGGAUCCCCCCACUGAGAUGAAAGCAAAAUGUGAGAGUCCACUCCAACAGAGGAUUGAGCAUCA | 0.175 |
| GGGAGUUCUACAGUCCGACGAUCUUGUGGGGAUGAGGGUGGGAUGGGAAAGGGAUGUAUGGAUGUUAUUGGCAUUUUUAAGUGUUUAGAGUUUUUUGGGGUUUGGGGUGGUUUUUUUUCCUUGUUUUCCUUUUUUCCUUUUAACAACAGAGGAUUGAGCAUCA | 38.2 |
| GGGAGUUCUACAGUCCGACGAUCCUGUUGGAUGGUUUUCCAAGGACACUUCCACAGGCAGAAGCCCUAGAUAGAGCUUAUCAGAUCGACACAGUGAUUAACCUGAAUGUGCCCUUUGAGGUCAUUAAACAACGCCUUACUGCUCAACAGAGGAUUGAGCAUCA | 0.299 |
| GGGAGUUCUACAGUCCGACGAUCGUCAUACAUAUUAAUGACCUGACAGUUAACAUUCUGUUGUUUAUUAUUGCCUUUCUCCACCUUAGAGAGCCAUAAAUAACUCUCUGGUGAAGUGAUUUGCUAUAAUGGGGGUGAGGAGUGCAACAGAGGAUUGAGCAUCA | 0.476 |
| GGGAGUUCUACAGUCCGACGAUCGGUGACGUGGUUCCGGUUGGACAGAGGAGAGCGUGGUGUUGGUGCAUGUGUUUCGGACUGGCCUUCAUGCUUGCUGGCGUCAUCCUCGGAGGGGCGUACCUGUACAAGUAUUUUGCUCUUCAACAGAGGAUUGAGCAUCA | 0.369 |
| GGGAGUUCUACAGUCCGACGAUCGGAACACAGCAGAGGGUGUGUAAUAAAAUACAGAUUGGAAAGAAGACUGAUGAAGAAAAAUAACAGCAUGAUUCAGGCACACCAUUGAGUUCUUUGGGAUGCCCGAAAGUGUCUGGUUGGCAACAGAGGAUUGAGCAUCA | 0.231 |
| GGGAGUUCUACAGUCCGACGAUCGAUUCAUUGCCUGCUUUACUGGAAUUCUACAAAAUACACUAUUUGGACACUACAACGUUGAUAGAACCAGUUUCCAGAUCCAGGCAGGGUAGUGGAGUGAUUCUCAGGCAGGAGGAGGCGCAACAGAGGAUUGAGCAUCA | 0.42 |
